Results from different studies.
Each line is one published result; not all experiments were run side by side. Several values in a cell are separate wells, animals, samples, runs or records. ± marks the error that the study gave.
MELK: Maternal embryonic leucine zipper kinase (MELK, Homo sapiens, UniProt Q14680)
Sequence of UniProt Q9Y2J8 (whole entry, looked up): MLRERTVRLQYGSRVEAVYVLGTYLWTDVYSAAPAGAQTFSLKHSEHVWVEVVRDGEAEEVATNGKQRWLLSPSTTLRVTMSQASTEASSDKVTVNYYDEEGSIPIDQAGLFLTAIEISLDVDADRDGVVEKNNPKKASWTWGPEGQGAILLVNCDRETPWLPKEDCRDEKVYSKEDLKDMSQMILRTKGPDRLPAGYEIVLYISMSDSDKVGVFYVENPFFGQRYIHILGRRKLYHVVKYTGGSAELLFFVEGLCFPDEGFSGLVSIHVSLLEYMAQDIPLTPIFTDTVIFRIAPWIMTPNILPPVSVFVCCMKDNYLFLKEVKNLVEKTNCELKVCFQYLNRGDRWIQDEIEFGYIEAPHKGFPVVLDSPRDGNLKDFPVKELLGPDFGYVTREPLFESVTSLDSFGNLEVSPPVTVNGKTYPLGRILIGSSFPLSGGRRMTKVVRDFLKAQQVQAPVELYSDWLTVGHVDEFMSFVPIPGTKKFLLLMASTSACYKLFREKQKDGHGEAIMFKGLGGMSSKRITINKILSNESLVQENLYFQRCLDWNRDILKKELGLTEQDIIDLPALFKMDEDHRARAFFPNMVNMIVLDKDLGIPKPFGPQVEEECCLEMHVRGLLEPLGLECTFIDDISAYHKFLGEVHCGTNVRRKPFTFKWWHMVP
Sequence of UniProt Q14680 (whole entry, looked up): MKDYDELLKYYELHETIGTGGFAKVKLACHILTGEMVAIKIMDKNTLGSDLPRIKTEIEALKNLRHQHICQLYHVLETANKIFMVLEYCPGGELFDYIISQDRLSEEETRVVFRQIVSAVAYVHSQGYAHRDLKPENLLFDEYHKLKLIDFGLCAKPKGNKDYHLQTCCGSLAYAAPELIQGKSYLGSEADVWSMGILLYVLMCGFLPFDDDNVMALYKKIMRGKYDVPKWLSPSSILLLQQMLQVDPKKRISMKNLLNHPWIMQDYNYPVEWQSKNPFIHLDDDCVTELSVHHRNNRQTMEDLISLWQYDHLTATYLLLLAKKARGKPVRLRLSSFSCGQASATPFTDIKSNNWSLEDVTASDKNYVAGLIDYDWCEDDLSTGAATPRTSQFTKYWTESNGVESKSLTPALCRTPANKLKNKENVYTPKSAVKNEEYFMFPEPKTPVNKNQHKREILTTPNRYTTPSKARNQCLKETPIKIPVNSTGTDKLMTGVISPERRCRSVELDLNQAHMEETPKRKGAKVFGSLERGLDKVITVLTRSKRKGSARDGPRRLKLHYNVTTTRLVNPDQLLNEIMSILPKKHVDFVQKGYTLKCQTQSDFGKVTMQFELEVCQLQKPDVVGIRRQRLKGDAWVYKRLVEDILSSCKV
Sequence of UniProt P35367 (whole entry, looked up): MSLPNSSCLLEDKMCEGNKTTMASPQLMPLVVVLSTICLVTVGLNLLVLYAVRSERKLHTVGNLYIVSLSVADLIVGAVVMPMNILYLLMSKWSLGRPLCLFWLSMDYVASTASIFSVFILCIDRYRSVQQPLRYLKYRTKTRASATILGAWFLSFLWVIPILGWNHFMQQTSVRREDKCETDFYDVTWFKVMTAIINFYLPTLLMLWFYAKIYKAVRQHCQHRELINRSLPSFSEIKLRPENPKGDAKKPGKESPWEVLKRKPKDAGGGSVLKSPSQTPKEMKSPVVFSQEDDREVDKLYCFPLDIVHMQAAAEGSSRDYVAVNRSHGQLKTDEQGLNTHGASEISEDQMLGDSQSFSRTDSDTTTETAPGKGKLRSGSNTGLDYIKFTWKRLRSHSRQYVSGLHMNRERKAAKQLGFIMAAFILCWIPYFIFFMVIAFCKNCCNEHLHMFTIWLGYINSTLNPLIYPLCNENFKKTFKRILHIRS
Sequence of UniProt P42892 (whole entry, looked up): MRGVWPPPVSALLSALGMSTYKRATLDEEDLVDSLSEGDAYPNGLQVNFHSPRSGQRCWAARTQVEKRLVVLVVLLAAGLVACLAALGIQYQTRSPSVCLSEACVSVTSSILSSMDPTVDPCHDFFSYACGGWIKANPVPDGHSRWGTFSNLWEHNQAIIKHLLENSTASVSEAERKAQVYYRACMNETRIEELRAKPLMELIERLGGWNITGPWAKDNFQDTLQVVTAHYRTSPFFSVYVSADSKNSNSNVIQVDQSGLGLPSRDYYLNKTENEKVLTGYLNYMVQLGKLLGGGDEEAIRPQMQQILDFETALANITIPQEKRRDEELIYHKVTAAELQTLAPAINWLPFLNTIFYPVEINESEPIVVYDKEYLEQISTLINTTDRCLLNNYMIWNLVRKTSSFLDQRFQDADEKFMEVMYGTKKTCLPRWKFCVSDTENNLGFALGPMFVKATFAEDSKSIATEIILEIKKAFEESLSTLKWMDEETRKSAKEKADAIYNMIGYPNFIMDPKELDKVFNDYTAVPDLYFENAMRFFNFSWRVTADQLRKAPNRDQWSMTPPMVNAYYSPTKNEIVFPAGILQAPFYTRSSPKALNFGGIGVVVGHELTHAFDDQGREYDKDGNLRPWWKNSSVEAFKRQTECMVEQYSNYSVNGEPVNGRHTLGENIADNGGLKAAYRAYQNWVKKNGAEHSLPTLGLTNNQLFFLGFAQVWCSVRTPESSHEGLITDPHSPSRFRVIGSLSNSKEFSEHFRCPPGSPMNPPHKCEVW
Sequence of UniProt Q704Y3 (whole entry, unmodified, looked up): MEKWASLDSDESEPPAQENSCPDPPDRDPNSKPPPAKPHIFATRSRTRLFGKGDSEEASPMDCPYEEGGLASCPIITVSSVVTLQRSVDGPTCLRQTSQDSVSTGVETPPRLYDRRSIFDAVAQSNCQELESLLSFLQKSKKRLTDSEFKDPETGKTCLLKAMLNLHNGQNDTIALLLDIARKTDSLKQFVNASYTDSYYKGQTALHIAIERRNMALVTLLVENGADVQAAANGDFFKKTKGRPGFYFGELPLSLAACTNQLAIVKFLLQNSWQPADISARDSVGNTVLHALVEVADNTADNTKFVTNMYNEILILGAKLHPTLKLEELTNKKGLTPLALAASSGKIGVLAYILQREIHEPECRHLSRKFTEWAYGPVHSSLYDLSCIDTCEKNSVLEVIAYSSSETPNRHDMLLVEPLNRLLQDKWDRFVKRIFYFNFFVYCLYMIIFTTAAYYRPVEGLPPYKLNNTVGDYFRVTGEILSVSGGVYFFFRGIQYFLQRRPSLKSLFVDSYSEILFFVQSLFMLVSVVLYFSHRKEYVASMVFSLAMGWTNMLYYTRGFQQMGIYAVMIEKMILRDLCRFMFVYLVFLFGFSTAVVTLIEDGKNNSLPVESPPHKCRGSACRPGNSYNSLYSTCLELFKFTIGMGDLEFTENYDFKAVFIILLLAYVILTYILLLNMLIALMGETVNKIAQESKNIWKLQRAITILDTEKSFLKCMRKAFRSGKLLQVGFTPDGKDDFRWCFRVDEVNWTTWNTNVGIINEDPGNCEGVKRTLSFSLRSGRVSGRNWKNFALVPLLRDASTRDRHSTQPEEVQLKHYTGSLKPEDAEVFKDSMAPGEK
Sequence of UniProt Q9QYR9 (whole entry, looked up): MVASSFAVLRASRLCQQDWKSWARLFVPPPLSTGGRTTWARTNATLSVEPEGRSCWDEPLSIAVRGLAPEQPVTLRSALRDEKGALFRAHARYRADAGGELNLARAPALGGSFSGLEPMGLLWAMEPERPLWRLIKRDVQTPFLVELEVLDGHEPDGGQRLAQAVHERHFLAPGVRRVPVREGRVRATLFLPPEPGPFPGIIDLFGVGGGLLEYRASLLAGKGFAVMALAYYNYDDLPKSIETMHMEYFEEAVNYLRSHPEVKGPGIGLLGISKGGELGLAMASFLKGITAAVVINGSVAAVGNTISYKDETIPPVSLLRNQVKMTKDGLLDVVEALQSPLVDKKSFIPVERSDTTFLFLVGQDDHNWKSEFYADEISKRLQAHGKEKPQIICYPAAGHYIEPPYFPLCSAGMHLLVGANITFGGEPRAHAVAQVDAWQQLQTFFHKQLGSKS
Sequence of UniProt P36896 (whole entry, looked up): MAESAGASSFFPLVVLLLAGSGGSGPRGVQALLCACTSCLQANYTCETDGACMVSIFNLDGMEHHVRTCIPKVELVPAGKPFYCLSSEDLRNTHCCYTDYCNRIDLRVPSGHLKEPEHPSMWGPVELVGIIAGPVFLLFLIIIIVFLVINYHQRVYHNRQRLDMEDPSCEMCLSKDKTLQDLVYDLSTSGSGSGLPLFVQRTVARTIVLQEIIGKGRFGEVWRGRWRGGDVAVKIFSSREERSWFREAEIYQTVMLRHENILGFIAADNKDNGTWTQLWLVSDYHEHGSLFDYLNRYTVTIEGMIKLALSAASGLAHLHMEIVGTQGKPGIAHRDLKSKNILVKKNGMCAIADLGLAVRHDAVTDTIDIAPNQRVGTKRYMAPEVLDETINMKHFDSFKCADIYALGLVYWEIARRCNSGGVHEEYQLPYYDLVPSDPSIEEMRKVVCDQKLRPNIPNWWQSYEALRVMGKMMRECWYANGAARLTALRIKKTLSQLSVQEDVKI
Sequence of UniProt P33533 (whole entry, looked up): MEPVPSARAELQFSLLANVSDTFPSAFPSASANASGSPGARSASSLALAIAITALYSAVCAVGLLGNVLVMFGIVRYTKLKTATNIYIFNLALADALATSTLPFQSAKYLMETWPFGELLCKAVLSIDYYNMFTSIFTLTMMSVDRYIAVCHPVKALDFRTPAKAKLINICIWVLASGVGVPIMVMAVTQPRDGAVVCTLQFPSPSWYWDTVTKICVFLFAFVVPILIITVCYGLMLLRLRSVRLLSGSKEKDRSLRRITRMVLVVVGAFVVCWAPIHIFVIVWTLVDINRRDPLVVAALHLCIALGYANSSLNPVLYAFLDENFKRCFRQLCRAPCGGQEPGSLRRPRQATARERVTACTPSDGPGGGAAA

SMILES | target or system | test | test system | setting | scale | quantity | result
CC(C)CC(O)(CC(C)C)c1cn(C(=O)N2CCCC2)nn1 | Acyl-coenzyme A thioesterase 2, mitochondrial (Acot2, Mus musculus, UniProt Q9QYR9) | probe labelling, inhibitor, item: Acot2 | mouse, brain | i.p., 0.8 mg/kg, 4 h, protein level | baseline: treated over vehicle mice, lower = stronger inhibition | activity ratio-of-ratios | 1.5
O=C1NC(=O)c2c1c1cc(F)c[n+]3c1c1c2c2cc(O)ccc2[n]1[Ru-4]312([N]=C=S)[S+]3CC[S+]1CC[S+]2CC3 (stereo not drawn) | MELK | enzyme activity |  | 100 nM, human enzyme, together with: 10 µM ATP | baseline: untreated | remaining activity | 1%
COc1ccccc1-c1n[nH]c2nc(N[C@H]3CC[C@H](NS(=O)(=O)CC(C)C)CC3)ncc12 |  | bead binding, competition bead pull-down, item: LMJF.29.0850 | Leishmania donovani extract | 10 µM | baseline: vehicle | relative abundance | 1.29
CC[C@H](C)[C@@H]1NC(=O)[C@H](CC(N)=O)NC(=O)[C@@H]2CCCN2C(=O)[C@@H](NC(=O)[C@H](CC(N)=O)NC(=O)[C@@H](N)CCC(N)=O)COC(=O)CN(CCSC)C(=O)[C@H](Cc2c[nH]c3ccccc23)NC(=O)[C@H](CCC(N)=O)NC(=O)CNC(=O)[C@H](Cc2ccccc2)NC1=O | Fsr quorum sensing protein (Enterococcus faecalis, UniProt A0ACD6TCR9) | cell-based activity |  | concentration not given |  | activity | inactive
CC(C)(C)C(=O)OCOP(=O)(OCOC(=O)C(C)(C)C)C1CCCN(O)C1=O (stereo not drawn) | RPMI-8226 |  |  |  |  | log GI50 | -6.51 log M
O=C1NC2(CC2)COc2ncc(F)cc2[C@H]2COCCN2c2ccn3ncc1c3n2 |  |  | Sprague-Dawley rat, male, serum | oral, 20 mg/kg/day, end of treatment, 4-week subacute toxicity |  | serum total bilirubin | 1.1 ± 0.4 µmol/L
CC(C)C[C@H](NC(=O)[C@H](CCC(=O)O)NC(=O)[C@@H](N)Cc1ccccc1)C(=O)N[C@@H](CCC(=O)O)C(=O)N[C@@H](CCCNC(=N)N)C(=O)N[C@@H](CCCNC(=N)N)C(=O)N[C@@H](Cc1ccccc1)C(=O)N[C@@H](CCCCN)C(=O)N[C@@H](CCC(N)=O)C(=O)N[C@@H](CCC(N)=O)C(=O)O | NKX2-3 | ChIP-qPCR, item: PDE1C promoter | TPCs | concentration not given |  | promoter binding | 0.0285 % input
N[C@H](C(=O)N1CCCC1)C1CCN(c2nccc3c(-c4ncc(Cl)cc4Cl)cccc23)CC1 | Protein-arginine deiminase type-2 (PADI2, Homo sapiens, UniProt Q9Y2J8) | enzyme activity |  | 9.6 µM, high-affinity site, together with: Ca2+ 1.5 mM |  | kcat | 0.439 s⁻¹ and 0.393 s⁻¹
CCCCC/C=C\C/C=C\C/C=C\C/C=C\CCCC(=O)NCCc1ccc(O)c(O)c1 | Transient receptor potential cation channel subfamily V member 1 (Trpv1, Mus musculus, UniProt Q704Y3, N552L) | ion current, agonist, whole-cell patch clamp |  | N552L | baseline: 3 mM 2-APB | maximal open probability | 0.88 ± 0.11
C#CCCCCOc1ccc2c(c1)CCCN2C(=O)CCl | Endothelin-converting enzyme 1 (ECE1, Homo sapiens, UniProt P42892) | mass spectrometry profiling | H460 cell lysate | 100 µM over 10 µM, UniProt P42892 | baseline: high over low concentration | reactivity ratio | 0.93
COc1ccccc1-c1n[nH]c2nc(NC3CCN(C(=O)Cc4ccc(F)cc4F)CC3)ncc12 |  | bead binding, competition bead pull-down, item: LMJF.21.0280 | Leishmania donovani extract | 10 µM | baseline: vehicle | relative abundance | 1.27
CC[C@H](C)[C@H](NC(=O)[C@H](CO)NC(=O)[C@H](Cc1ccc(O)cc1)NC(=O)[C@H](Cc1ccc(O)cc1)NC(=O)[C@H](CC(N)=O)NC(=O)CNC(=O)[C@H](CO)NC(=O)[C@H](Cc1ccc(O)cc1)NC(=O)[C@H](CO)NC(=O)[C@H](CO)NC(=O)[C@H](CC(N)=O)NC(=O)COCCOCCNC(=O)CN1CCN(CC(=O)O)CCN(CC(=O)O)CCN(CC(=O)O)CC1)C(=O)N[C@@H](CC(C)C)C(N)=O [copper-64 labelled] |  | ex vivo PET | C57BL/6 mice, liver | intravenous, 4.6 MBq/mouse |  | tissue uptake | 1.7 %ID/mL
Cc1cc(-c2ccc3ccccc3c2)nnc1NCCN1CCN(C)CC1 | Histamine H1 receptor (HRH1, Homo sapiens, UniProt P35367) | antagonist |  | concentration not given |  | antagonist activity | negative
CC(C)[C@H]1NC(=O)C[C@H]2/C=C/CCSSC[C@@H](NC1=O)C(=O)N[C@H](Cc1cccc3ccccc13)C(=O)NCC(=O)O2 | Serine/threonine-protein kinase TAO2 (TAOK2, Homo sapiens, UniProt Q9UL54) | enzyme activity, inhibitor |  | 10 µM |  | inhibition | 1.9%
C[C@@H](O)[C@@H]1CN([C@@H](CC2CCCCC2)CN2CCC[C@H]2CN2CCNC[C@@H]2Cc2ccc3ccccc3c2)CCN1CCCC1CCCC1 | Delta-type opioid receptor (Oprd1, Rattus norvegicus, UniProt P33533) | radioligand binding | rat brain membranes | 500 nM, pH 7.5, 25 °C, together with: 2 nM [3H]DPDPE |  | remaining binding | 92.2%
CN(C)[C@H]1C[C@@]23CC[C@@]4(O2)C(=CC[C@]2(C)[C@@H](c5ccc6ccncc6c5)CC[C@H]24)C=C3[C@@H](O)[C@@H]1O | MELK | ATP probe labelling, inhibitor, KiNativ profiling |  | 0.1 µM |  | inhibition | -4.4%
CS(C)(=O)=Nc1ccc(-c2ccc(-c3nc4cc(O[C@@H]5CO[C@H]6[C@@H]5OC[C@H]6O)[nH]c4cc3F)cc2)cc1 | Mast/stem cell growth factor receptor Kit (KIT, Homo sapiens, UniProt P10721, V654A) | enzyme activity, inhibitor |  | 10 µM |  | inhibition | -9%
Nc1ccc(/C=C/C(=O)N2CCc3c(oc4c(-c5ccc(F)cc5)cc(-c5ccc(C(=O)N6CCC(F)(F)CC6)cn5)cc34)C2)cn1 | Activin receptor type-1B (ACVR1B, Homo sapiens, UniProt P36896) | binding, competition with immobilised ligand |  | 1 µM |  | remaining binding | 98%
